Measurements pooled from the literature.
SIGMAR1: Sigma non-opioid intracellular receptor 1 (SIGMAR1, Homo sapiens, UniProt Q99720)
Sequence of UniProt Q99720 (whole entry, looked up): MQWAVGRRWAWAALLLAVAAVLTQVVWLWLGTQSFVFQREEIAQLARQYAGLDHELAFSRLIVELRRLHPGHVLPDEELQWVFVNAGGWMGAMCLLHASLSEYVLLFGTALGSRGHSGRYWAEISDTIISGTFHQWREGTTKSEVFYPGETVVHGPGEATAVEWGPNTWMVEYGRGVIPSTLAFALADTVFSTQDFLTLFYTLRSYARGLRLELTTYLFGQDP
Sequence of UniProt P11802 (whole entry, looked up): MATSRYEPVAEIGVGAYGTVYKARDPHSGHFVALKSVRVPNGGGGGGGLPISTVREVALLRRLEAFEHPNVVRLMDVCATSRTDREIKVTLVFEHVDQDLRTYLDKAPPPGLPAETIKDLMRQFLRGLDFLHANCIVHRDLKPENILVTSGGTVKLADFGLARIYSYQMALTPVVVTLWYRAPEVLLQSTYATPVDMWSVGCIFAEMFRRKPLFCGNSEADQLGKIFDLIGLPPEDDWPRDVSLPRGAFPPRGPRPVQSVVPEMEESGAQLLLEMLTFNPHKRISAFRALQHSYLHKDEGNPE
Sequence of UniProt P51451 (whole entry, looked up): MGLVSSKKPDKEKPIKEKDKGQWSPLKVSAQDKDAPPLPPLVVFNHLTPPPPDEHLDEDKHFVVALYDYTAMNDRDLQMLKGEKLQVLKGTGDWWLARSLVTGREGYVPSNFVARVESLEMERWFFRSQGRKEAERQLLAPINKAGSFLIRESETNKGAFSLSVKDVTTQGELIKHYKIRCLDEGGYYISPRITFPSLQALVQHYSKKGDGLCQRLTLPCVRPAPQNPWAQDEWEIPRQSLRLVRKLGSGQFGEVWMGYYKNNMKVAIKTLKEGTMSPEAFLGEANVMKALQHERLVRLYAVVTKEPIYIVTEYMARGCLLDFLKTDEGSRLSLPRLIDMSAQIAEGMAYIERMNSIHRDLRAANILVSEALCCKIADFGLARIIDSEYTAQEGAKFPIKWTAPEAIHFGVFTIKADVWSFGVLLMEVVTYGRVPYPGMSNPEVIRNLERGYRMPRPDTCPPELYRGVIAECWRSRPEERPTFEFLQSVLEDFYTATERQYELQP
Sequence of UniProt Q0VDG4 (whole entry, looked up): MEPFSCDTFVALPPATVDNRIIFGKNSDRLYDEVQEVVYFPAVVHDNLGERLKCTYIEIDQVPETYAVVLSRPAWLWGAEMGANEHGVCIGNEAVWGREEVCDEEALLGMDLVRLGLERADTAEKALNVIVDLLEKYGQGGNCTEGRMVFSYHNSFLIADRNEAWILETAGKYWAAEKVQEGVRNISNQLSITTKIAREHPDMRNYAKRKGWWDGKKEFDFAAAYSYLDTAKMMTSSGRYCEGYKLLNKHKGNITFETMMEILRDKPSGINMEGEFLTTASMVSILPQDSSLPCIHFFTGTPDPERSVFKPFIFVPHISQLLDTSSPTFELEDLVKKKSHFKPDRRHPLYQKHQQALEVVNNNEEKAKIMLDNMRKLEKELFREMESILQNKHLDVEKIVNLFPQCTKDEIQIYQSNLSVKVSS
Sequence of UniProt P43116 (whole entry, looked up): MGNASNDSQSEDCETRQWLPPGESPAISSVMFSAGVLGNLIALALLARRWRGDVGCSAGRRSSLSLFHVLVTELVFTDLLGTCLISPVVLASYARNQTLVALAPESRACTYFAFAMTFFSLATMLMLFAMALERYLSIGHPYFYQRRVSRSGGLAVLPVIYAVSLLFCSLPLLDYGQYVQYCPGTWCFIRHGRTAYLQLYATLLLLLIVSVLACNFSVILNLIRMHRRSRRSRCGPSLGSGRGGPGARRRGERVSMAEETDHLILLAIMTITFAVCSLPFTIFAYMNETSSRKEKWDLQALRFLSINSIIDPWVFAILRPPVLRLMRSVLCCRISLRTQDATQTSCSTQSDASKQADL
Sequence of UniProt P27448 (whole entry, looked up): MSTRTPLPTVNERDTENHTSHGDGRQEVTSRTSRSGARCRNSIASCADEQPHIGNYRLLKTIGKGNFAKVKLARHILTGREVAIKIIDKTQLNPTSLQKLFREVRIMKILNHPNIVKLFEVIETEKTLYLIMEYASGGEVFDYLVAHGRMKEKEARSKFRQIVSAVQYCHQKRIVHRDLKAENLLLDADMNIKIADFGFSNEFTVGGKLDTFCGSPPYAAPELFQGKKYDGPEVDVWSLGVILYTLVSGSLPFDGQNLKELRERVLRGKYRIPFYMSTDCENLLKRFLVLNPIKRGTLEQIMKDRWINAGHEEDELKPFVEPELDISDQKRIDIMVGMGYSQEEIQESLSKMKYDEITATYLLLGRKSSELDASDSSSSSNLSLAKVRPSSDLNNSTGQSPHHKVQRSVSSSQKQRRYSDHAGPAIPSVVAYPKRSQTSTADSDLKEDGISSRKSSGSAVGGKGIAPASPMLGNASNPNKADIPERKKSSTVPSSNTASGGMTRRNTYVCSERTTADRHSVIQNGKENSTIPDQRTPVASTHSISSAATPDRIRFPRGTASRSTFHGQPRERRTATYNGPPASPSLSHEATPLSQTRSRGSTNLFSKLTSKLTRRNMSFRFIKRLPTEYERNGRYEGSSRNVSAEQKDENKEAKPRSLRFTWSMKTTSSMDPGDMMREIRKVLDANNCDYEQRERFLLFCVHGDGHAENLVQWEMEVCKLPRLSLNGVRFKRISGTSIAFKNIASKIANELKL
Sequence of UniProt P29320 (whole entry, looked up): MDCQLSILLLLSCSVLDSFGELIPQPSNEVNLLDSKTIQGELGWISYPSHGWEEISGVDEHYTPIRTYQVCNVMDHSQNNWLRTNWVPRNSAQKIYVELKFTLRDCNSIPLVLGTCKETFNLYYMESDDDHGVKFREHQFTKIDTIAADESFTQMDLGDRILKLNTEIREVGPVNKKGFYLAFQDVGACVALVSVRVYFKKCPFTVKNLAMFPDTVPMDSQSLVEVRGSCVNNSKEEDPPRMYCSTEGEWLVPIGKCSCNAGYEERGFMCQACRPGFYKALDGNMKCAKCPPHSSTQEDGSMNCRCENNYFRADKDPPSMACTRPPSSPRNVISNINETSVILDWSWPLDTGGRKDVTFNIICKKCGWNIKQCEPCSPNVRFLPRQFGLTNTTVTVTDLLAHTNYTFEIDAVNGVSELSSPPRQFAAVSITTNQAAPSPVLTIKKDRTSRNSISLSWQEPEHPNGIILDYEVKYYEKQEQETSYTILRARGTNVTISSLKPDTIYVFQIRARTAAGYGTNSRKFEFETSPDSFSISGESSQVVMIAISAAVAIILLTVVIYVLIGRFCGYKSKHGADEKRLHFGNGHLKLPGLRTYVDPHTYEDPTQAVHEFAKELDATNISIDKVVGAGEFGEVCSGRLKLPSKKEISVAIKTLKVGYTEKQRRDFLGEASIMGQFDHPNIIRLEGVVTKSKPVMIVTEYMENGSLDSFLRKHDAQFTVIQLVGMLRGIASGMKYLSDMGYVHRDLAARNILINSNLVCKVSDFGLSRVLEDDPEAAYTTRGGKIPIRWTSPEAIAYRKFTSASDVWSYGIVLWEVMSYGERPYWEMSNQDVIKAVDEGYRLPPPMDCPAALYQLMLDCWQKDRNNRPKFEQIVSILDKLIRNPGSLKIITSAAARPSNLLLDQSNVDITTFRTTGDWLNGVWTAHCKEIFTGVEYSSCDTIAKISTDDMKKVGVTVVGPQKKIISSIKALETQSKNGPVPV
Sequence of UniProt Q13882 (whole entry, looked up): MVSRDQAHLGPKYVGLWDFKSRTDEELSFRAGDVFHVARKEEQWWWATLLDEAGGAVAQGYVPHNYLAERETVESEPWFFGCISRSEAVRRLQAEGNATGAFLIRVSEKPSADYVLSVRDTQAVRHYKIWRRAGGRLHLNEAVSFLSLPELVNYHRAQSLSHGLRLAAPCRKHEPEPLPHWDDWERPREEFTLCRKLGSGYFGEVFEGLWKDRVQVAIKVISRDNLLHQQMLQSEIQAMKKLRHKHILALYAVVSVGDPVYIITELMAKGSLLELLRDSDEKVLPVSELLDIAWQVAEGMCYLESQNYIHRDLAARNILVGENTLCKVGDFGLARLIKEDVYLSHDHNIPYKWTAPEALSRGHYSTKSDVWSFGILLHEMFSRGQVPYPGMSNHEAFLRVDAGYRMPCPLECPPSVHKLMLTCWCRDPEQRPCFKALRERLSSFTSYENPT
Sequence of UniProt O76083 (whole entry, looked up): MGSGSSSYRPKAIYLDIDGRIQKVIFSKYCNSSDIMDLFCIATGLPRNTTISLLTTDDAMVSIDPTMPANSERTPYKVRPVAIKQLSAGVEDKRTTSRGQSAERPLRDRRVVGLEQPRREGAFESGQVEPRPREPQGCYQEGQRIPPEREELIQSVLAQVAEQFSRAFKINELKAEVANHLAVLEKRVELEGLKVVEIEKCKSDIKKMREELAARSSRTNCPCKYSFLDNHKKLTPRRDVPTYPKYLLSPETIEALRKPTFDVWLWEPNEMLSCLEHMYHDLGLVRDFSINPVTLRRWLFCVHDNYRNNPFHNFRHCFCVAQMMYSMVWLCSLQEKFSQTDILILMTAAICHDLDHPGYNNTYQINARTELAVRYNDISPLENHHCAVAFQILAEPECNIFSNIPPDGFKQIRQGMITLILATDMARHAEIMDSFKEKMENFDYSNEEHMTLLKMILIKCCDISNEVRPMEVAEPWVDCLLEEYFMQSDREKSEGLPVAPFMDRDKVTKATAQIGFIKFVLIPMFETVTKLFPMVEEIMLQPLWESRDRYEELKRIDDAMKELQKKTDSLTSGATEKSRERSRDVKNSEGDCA

Compound | tested on | assay | test system | conditions | how to read | endpoint | result
OC1Cc2ccccc2CC1N1CCC2(CC1)C(Br)=Cc1ccccc12 (racemic) | SIGMAR1 | – | rat liver (sigma2), human sigma1 | – | reference: Ki sigma2 over Ki sigma1 | selectivity ratio | 22
CC(=O)c1c(C)c2cnc(Nc3ccc(C4CCN(CCS(C)(=O)=O)CC4)cn3)nc2n(C2CCCC2)c1=O | CDK4 (Homo sapiens, UniProt P11802) | inhibitor | – | – | reference: CDK4 IC50 over CDK6 IC50 | selectivity ratio | 5.2
NNc1ccc(F)cc1 | Secernin-3 (Homo sapiens, UniProt Q0VDG4) | gel-based ABPP | HEK-293T lysate | – | reference: IC50 SCRN2 over Secernin-3 | selectivity ratio | 25 fold
Cc1ccc([C@H]2C[C@@H]2COc2cc(NCc3nnc(C)s3)nc(C)n2)nc1 | PDE9A (Homo sapiens, UniProt O76083) | enzyme activity, inhibitor, IMAP fluorescence polarization | – | isoform PDE9A2 | reference: Ki target over Ki PDE10A2 | selectivity ratio | > 1.88e+06 fold
COc1cc2c(Oc3ccc4[nH]c(C)cc4c3F)ccnc2cc1OCC1(N)CC1 | – | – | paediatric refractory sarcoma patients | 8 mg | – | abdominal distension incidence | 0%
COc1ccc(N2C(=O)N(c3c(C)cccc3Cl)Cc3cnc(Nc4ccc(C5CCN(C)CC5)cc4OC)nc32)nc1 | MARK3 (Homo sapiens, UniProt P27448) | kinase activity | – | 0.5 µM | – | inhibition | 32%
CCn1c(-c2nc3cc(C(=O)N4CCC[C@@H](N)C4)cc(OC)c3n2C)cc2cccnc21 | PADI2 (Homo sapiens, UniProt Q9Y2J8) | – | – | – | reference: Ki PADI2 over Ki PAD4 | selectivity ratio | 99
OC1Cc2ccccc2CC1N1CCC2(C=Cc3ccc(F)cc32)CC1 (racemic) | SIGMAR1 | – | rat liver (sigma2), human sigma1 | – | reference: Ki sigma2 over Ki sigma1 | selectivity ratio | 45
COc1ccc(F)cc1C(=O)NCc1ccc(-c2nn([C@@H](C)C(F)(F)F)c(N)c2C(N)=O)cc1 | PTK6 (Homo sapiens, UniProt Q13882) | target engagement, NanoBRET | HEK293 | – | reference: PTK6 over BTK | selectivity ratio | 546
COc1cc2nccc(Oc3ccc(NC(=O)c4cc5c(n(-c6ccccc6)c4=O)CCCC5=O)nc3)c2cc1OC | BLK (Homo sapiens, UniProt P51451) | cell viability, CellTiter-Glo | Ba/F3 expressing recombinant kinase | – | reference: BLK IC50 over AXL IC50 | selectivity ratio | > 100
O=C(Nc1cnccc1Cl)N1CCN(Cc2ccc3c(c2)OC(F)(F)O3)CC1 | PTGER2 (Homo sapiens, UniProt P43116) | radioligand binding, inhibitor | – | 10 µM, human, together with: [3H]prostaglandin E2 | – | inhibition | -3%
CC1=Cc2ccccc2C12CCN(C1Cc3ccccc3CC1O)CC2 (racemic) | SIGMAR1 | – | rat liver (sigma2), human sigma1 | – | reference: Ki sigma2 over Ki sigma1 | selectivity ratio | 4.7
C[C@H]1CN(c2n[nH]c3nc(N[C@H]4CC[C@H](NS(=O)(=O)CCC(F)(F)F)CC4)ncc23)CCO1 | EPHA3 (Homo sapiens, UniProt P29320) | inhibitor, Kinobeads competition profiling | – | 0.16 µM | reference: vehicle | relative abundance | 1.11

Some of these lines once more:
Compound | tested on | assay | test system | conditions | how to read | endpoint | result
CC1=Cc2ccccc2C12CCN(C1Cc3ccccc3CC1O)CC2 (racemic) | SIGMAR1 | – | rat liver (sigma2), human sigma1 | – | reference: Ki sigma2 over Ki sigma1 | selectivity ratio | 4.7
